{"data": "Measurements pooled from the literature", "TOP2B": "DNA topoisomerase 2-beta (TOP2B, Homo sapiens, UniProt Q02880)", "Voltage-dependent P/Q-type calcium channel subunit alpha-1A": "Voltage-dependent P/Q-type calcium channel subunit alpha-1A (Homo sapiens, UniProt O00555)", "UCHL1": "Ubiquitin carboxyl-terminal hydrolase isozyme L1 (UCHL1, Homo sapiens, UniProt P09936)", "ADRA2C": "Alpha-2C adrenergic receptor (ADRA2C, Homo sapiens, UniProt P18825)", "T1": "RNA aptamer, 3'-5' linkages; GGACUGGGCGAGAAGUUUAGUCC", "T2": "G-quadruplex DNA (Homo sapiens); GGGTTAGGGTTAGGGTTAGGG", "note": "Each line is one published result; not all experiments were run side by side. “And” joins repeats or separate records; there may be more than shown. ± gives the spread as reported."}
{"Compound": "CCC(=O)NS(=O)(=O)c1ccc(-c2c(-c3ccccc3)noc2C)cc1", "target or system": "THRA (Homo sapiens, UniProt P10827)", "test": "reporter gene, Gal4 hybrid reporter", "conditions": "50 µM", "how to read": "reference: vehicle", "endpoint": "activation", "result": "0.67 fold"}
{"Compound": "Cc1nc(CSc2nc(SCc3ccc(C(C)C)cc3)nc(=O)[nH]2)cs1", "target or system": "TOP2B", "test": "decatenation", "conditions": "7.8 µM, replicate 1", "endpoint": "decatenated DNA", "result": "93.5%"}
{"Compound": "O=C(O)Cc1ccccc1Nc1c(Cl)cccc1Cl", "target or system": "Voltage-dependent P/Q-type calcium channel subunit alpha-1A", "test": "ion current, antagonist", "test system": "HEK293", "conditions": "10 µM", "endpoint": "inhibition", "result": "4%"}
{"Compound": "CC[C@@H]1[C@H](F)C(=O)N[C@@H]1COc1nccc2cc(C(N)=O)c(OC)cc12", "target or system": "STK38L (Homo sapiens, UniProt Q9Y2H1)", "test": "ATP-site probe binding, ActivX profiling", "test system": "THP-1 cell lysate", "conditions": "0.2 mM, Lys1 site", "endpoint": "inhibition", "result": "12%"}
{"Compound": "O=c1nc(SCc2cc(F)cc(C(F)(F)F)c2)nc(SCc2ccc3nc(Cl)ccc3c2)[nH]1", "target or system": "TOP2B", "test": "decatenation", "conditions": "31.25 µM", "endpoint": "mean decatenated DNA", "result": "0.58%"}
{"Compound": "Oc1ccccc1-c1n[nH]cc1-c1ccnc2ccccc12", "target or system": "Histidine protein kinase NIK1 (NIK1, Candida albicans, UniProt Q5A599)", "test": "kinase binding, MIB/MS competition", "test system": "Candida albicans lysate", "conditions": "1 µM", "how to read": "reference: DMSO, negative = stronger binding", "endpoint": "log2 fold change", "result": -0.05}
{"Compound": "NCC[C@H](O)C(=O)N[C@@H]1C[C@H](N)[C@@H](O[C@H]2O[C@H](CN)[C@@H](O)[C@H](O)[C@H]2O)[C@H](O)[C@H]1O[C@H]1O[C@H](CO)[C@@H](O)[C@H](N)[C@H]1O", "target or system": "T1, RNA aptamer, 3'-5' linkages", "test": "ITC", "endpoint": "Kd", "result": "10 µM"}
{"Compound": "CCN1CCC[C@H]1CNC(=O)c1c(O)c(Cl)cc(Cl)c1OC", "target or system": "Probable G-protein coupled receptor 85 (GPR85, Homo sapiens, UniProt P60893)", "test": "β-arrestin recruitment, TANGO luminescence, measured: GPR85", "conditions": "concentration not given", "how to read": "reference: basal luminescence", "endpoint": "log2 fold change", "result": -0.037}
{"Compound": "O=C(O)C1=CCNCC1", "target or system": "BEST1 (Homo sapiens, UniProt O76090)", "test": "whole-cell patch clamp", "test system": "HEK293 transiently expressing channel", "conditions": "concentration not given, membrane potential -100 mV", "endpoint": "current density", "result": "-132 pA/pF and -26.1 pA/pF and -28.2 pA/pF and -68.4 pA/pF and -59.3 pA/pF and -21.1 pA/pF"}
{"Compound": "C#CCCCCC(F)=C1O[C@H](CO)[C@@H](O)[C@H](O)[C@H]1O", "target or system": "uncharacterized protein (Saccharopolyspora erythraea, UniProt A4F7P9)", "conditions": "concentration not given, pH 7.6, 20 °C, with: p-nitrophenyl-β-D-glucopyranoside", "endpoint": "apparent Km", "result": "2430 ± 200 µM"}
{"Compound": "O=C1CN(c2ccc(NS(=O)(=O)c3cccc(Cl)c3O)cn2)CCN1", "target or system": "malate dehydrogenase", "test": "enzyme activity, inhibitor", "conditions": "200 µM, pH 7.0, 1% DMSO, aggregation counter-screen", "endpoint": "remaining activity", "result": "137%"}
{"Compound": "Nc1ncnc2c1ncn2[C@@H]1O[C@H](COP(=O)(O)CP(=O)(O)OP(=O)(O)O)[C@@H](O)[C@H]1O", "target or system": "P2X purinoceptor 1 (P2RX1, Homo sapiens, UniProt P51575, E282A)", "test": "calcium influx", "conditions": "3.16 µM", "how to read": "reference: ionomycin response", "endpoint": "calcium influx", "result": "93.1% and 88.6% and 82.5%"}
{"Compound": "COc1ccc(C2=NN(C(=O)CCl)C(c3cccc(C)c3)C2)cc1 (stereo not shown)", "target or system": "UCHL1", "test": "covalent, intact protein LC-MS", "conditions": "12.5 µM", "endpoint": "labelling", "result": "24.1%"}
{"Compound": "Cc1cc(Oc2ncccc2CN2CCN(c3ncccc3C(F)(F)F)CC2)ccc1-c1c(C)c(=O)[nH]c(=O)n1C", "target or system": "ADRA2C", "test": "binding, radioligand binding", "conditions": "with: [3H]rauwolscine", "how to read": "reference: Ki alpha2B over Ki alpha2C", "endpoint": "selectivity ratio", "result": 4}
{"Compound": "CCOC(=O)c1[nH]c2cc(Cl)ccc2c1C(C(=O)NC1CCCCC1)N(C=O)Cc1ccc(Cl)cc1 (stereo not shown)", "target or system": "MDM2 (Homo sapiens, UniProt Q00987)", "test": "fluorescence polarization", "endpoint": "Ki", "result": "2.3 µM"}
{"Compound": "O=C(O)CCCOc1c2ccoc2cc2oc(=O)ccc12", "target or system": "Kcna3 (Mus musculus, UniProt P16390)", "test": "Kv1.3 current, blocker", "test system": "mouse L929 cells", "conditions": "concentration not given", "endpoint": "channel block", "result": "inactive"}
{"Compound": "O=S(=O)(Nc1ccc(-c2cnco2)cc1)c1cccc(Cl)c1O", "target or system": "malate dehydrogenase", "test": "enzyme activity, inhibitor", "conditions": "200 µM, pH 7.0, 1% DMSO, aggregation counter-screen", "endpoint": "remaining activity", "result": "81%"}
{"Compound": "CC(=C/C(=O)O)/C=C/C=C(\\C)C1C=C2C(C)(C)CCCC2(C)O1 (stereo not shown)", "target or system": "Rhodopsin (RHO, Homo sapiens, UniProt P08100, P23H)", "test": "immunostaining, measured: opsin", "test system": "COS-7 transfected", "conditions": "0.10 µM, unit not given", "how to read": "reference: surface over total stained cells", "endpoint": "plasma membrane localization", "result": 0}
{"Compound": "Cc1cc(Oc2ncccc2CN2CCN(C(c3ccccc3)c3ccccc3)CC2)ccc1-c1c(C)c(=O)[nH]c(=O)n1C", "target or system": "ADRA2C", "test": "binding, radioligand binding", "conditions": "with: [3H]rauwolscine", "how to read": "reference: Ki alpha2A over Ki alpha2C", "endpoint": "selectivity ratio", "result": 2}
{"Compound": "N#CC(=Cc1ccc(O)c([N+](=O)[O-])c1)C(=O)NCc1ccccc1", "target or system": "UCHL1", "test": "covalent, intact protein LC-MS", "conditions": "12.5 µM", "endpoint": "labelling", "result": "35.9%"}
{"Compound": "O=C(CNc1cccc2ccccc12)N/N=C/c1ccc([N+](=O)[O-])o1", "target or system": "Trypanosoma cruzi", "test": "reporter translation, Renilla luciferase mRNA translation", "test system": "cell-free extract", "conditions": "40 µM", "how to read": "reference: DMSO", "endpoint": "inhibition", "result": "14.7%"}
{"Compound": "c1cc(-c2nc(NCCN3CCCC3)c3ccccc3n2)nc(-c2nc(NCCN3CCCC3)c3ccccc3n2)c1", "target or system": "T2, G-quadruplex DNA (Homo sapiens)", "test": "FRET melting", "conditions": "1 µM, pH 7.2, KCl 10 mM", "endpoint": "ΔTm", "result": "> 15 °C"}
{"Compound": "Cc1cc(-c2ccnc3[nH]cc(F)c23)cc(F)c1[C@@]1(O)[C@H](C)CN(C(=O)CN)C[C@@H]1C", "target or system": "LATS2 (Homo sapiens, UniProt Q9NRM7)", "test": "ATP probe binding, KiNativ, measured: Lys2 site", "test system": "HEK293T cell lysate", "conditions": "10 µM", "endpoint": "inhibition", "result": "98.2%"}
{"Compound": "O=C(CCl)Cc1ccc(F)c(F)c1", "target or system": "UCHL1", "test": "covalent, intact protein LC-MS", "conditions": "12.5 µM", "endpoint": "labelling", "result": "16.5%"}
{"Compound": "CC(=O)Nc1ccc(O)cc1", "target or system": "Voltage-dependent P/Q-type calcium channel subunit alpha-1A", "test": "ion current, antagonist", "test system": "HEK293", "conditions": "10 µM", "endpoint": "inhibition", "result": "22%"}
{"Compound": "C=CC(=O)N1CCC(COCC(=O)N2CCN(c3nc(-c4cnc(N)nc4C(F)F)nc(N4CCOC[C@@H]4C)n3)CC2)CC1", "target or system": "SRPK1 (Homo sapiens, UniProt Q96SB4)", "test": "KINOMEscan", "conditions": "1 µM", "endpoint": "remaining binding", "result": "100%"}
{"Compound": "O=c1nc(SCc2cc(F)cc(C(F)(F)F)c2)nc(SCc2ccc3nc(OCCN4CCOCC4)ccc3c2)[nH]1", "target or system": "TOP2A (Homo sapiens, UniProt P11388)", "test": "DNA cleavage", "conditions": "7.8 µM", "endpoint": "mean linear DNA", "result": "0%"}
{"Compound": "Nc1ncnc2c1ncn2[C@@H]1O[C@H](COP(=O)(O)OP(=O)(O)OP(=O)(O)O)[C@@H](O)[C@H]1O", "target or system": "Acyl-coenzyme A oxidase acox-1.1 (acox-1.1, Caenorhabditis elegans, UniProt O62140)", "test": "substrate, HPLC", "conditions": "50 µM, with: acyl-CoA oxidase", "endpoint": "hydrolysis rate", "result": "0.00268 s⁻¹"}
{"Compound": "CC(C)OCCn1c(=S)[nH]c(=O)c2[nH]ccc21", "target or system": "Myeloperoxidase (MPO, Homo sapiens, UniProt P05164)", "test": "H2O2 consumption, inhibitor, H2O2 electrode", "conditions": "0.45 µM, 0.3 s", "endpoint": "H2O2 concentration", "result": "-0.47 µM"}
{"Compound": "Nc1ncnc2c1ncn2[C@@H]1O[C@H](COP(=O)(O)OP(=O)(O)NP(=O)(O)O)[C@@H](O)[C@H]1O", "target or system": "Cell cycle histidine kinase CckA, CA domain (Caulobacter vibrioides, UniProt Q9X688)", "test": "ITC", "conditions": "12 °C, with: c-di-GMP 100 µM", "endpoint": "-TΔS", "result": "-3.3 kcal/mol"}
{"Compound": "COc1ccc(-n2nc(C(=O)NC(=O)OCc3cc(C(=O)O)ccc3OP(=O)(O)O)c3c2C(=O)N(c2ccc(N4CCCCC4=O)cc2)CC3)cc1", "target or system": "Alkaline phosphatase, placental type (Homo sapiens, UniProt P05187)", "test": "substrate", "conditions": "100 µM, pH 7.6, 37 °C", "endpoint": "drug formation rate", "result": "1.65 pmol/min"}
{"Compound": "COc1ccc(Br)c(CCNS(=O)(=O)c2ccsc2C(=O)O)c1", "target or system": "malate dehydrogenase", "test": "enzyme activity, inhibitor", "conditions": "200 µM, pH 7.0, 1% DMSO, aggregation counter-screen", "endpoint": "remaining activity", "result": "78%"}
{"Compound": "CNCC[C@@H](Oc1ccccc1C)c1ccccc1", "target or system": "Voltage-dependent P/Q-type calcium channel subunit alpha-1A", "test": "ion current, antagonist", "test system": "HEK293", "conditions": "30 µM", "endpoint": "inhibition", "result": "89%"}
{"Compound": "COc1ccc(CN2CCCC(N3CCN(c4cccc(Cl)c4)CC3)C2)cc1OC (stereo not shown)", "target or system": "Trypanosoma cruzi", "test": "reporter translation, Renilla luciferase mRNA translation", "test system": "cell-free extract", "conditions": "40 µM", "how to read": "reference: DMSO", "endpoint": "inhibition", "result": "4.8%"}
{"note": "Excerpt of the above:"}
{"Compound": "COc1ccc(CN2CCCC(N3CCN(c4cccc(Cl)c4)CC3)C2)cc1OC (stereo not shown)", "target or system": "Trypanosoma cruzi", "test": "reporter translation, Renilla luciferase mRNA translation", "test system": "cell-free extract", "conditions": "40 µM", "how to read": "reference: DMSO", "endpoint": "inhibition", "result": "4.8%"}
{"Compound": "C=CC(=O)N1CCC(COCC(=O)N2CCN(c3nc(-c4cnc(N)nc4C(F)F)nc(N4CCOC[C@@H]4C)n3)CC2)CC1", "target or system": "SRPK1 (Homo sapiens, UniProt Q96SB4)", "test": "KINOMEscan", "conditions": "1 µM", "endpoint": "remaining binding", "result": "100%"}
